Experimental data from different studies.
Parts stem from different laboratories: compare values within a part only. Substitutions count along the parent as printed.

Sample 1 — technique: RNA Bind-n-Seq; molecule type: RNA; matrix: in vitro; concentration: 200 nM; setting: whole 134-nt RNA, ends assumed; with: 150 mM LiCl; relative to: input library; direction: higher = stronger binding; all molecules: 7-deaza-guanosine replaces G
Target: Fragile X messenger ribonucleoprotein 1, C-terminal low-complexity region (Fmr1, Mus musculus, UniProt P35922)
Oligonucleotide	log2 enrichment
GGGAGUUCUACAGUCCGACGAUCUAACUUUAGAGGAGGAUCUGAUGGAUAAGGCAGUGGACGUGGAUUUGGGGAUGGCUAUAAUGGGUAUGGAGGAGGACCUGGAGGUGGCAAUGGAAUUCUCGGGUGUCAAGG	0.0263
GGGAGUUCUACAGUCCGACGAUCCUCAAGUCCUGUGCUACACAUCGUAUGUACCGAAUCGGUUUGGUGGAAAAAGGAAAGUAUUAUGUUACGCCGUUCGGAUCUGCACUUCCAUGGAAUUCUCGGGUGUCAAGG	-0.152
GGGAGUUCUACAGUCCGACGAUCUUGGGUUCAAUAUACGGAGAGUGCCCUGUGCCAAAGCCACGAGUUGAUCGUCCAAGAAAAGUUCCUGUGAUACAAGAGGAGAGGGCAAUGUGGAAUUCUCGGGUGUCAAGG	-1.82
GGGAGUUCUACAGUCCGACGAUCUGGAAGGUGGAUUUUGUUUAUUUUUUUAGCUCAUUUCCAGGGGUGGGAAUUUUUUUUUAAUAUGUGUCAUGAAUAAAGUUGUUUUUGAAAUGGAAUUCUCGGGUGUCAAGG	-0.733
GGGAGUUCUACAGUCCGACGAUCCAAGUCCUGUGCUACACAUCGUAUGUACCGAAUCGGUUUUUGGAAAAAAAGGUGGAAAGUAUUAUGUUACGCCGUUCGGAUCUGCACUUCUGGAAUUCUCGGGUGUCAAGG	-1.76
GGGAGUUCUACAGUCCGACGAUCACCAUGCAGGUGGGCAUCUUUGGGAUGUGGGGCAAGGGGGGGAUAGGGAGGGGGGUAACACUUUGGGAACAGGUGGUCCCAGGUCGUUUCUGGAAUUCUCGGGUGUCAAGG	1.04

Sample 2 — technique: universal PBM; molecule type: double-stranded DNA, one strand shown; matrix: in vitro; concentration: not given; direction: higher = stronger binding
Target: Sal-like protein 4, full length isoform B (SALL4, Homo sapiens, UniProt Q9UJQ4-2, residues 1-616)
Setting: 8-mer, flanks averaged, mean of replicates
Oligonucleotide	E-score
ACGAGTTC	-0.0241
ATCTGTCG	-0.0448
ACGTTGAA	-0.00934
AGTTTGTC	0.106
ATATCGGG	0.0845
GTCTCCTA	0.0238
CACCAAGC	-0.145
ATCGCAAC	-0.0164
GCATGCAC	0.0171
TAAGGAAA	0.141

Sample 3 — technique: aptamer microarray, sandwich; molecule type: DNA with 2'F-ANA; matrix: in vitro; concentration: 200 nM; with: Cy3 exosite-II aptamer, 400 nM; direction: higher = stronger binding; oligonucleotide: GGTTGGTGTGGTTGG
Target: Prothrombin, mature alpha-thrombin (F2, Homo sapiens, UniProt P00734)
Setting: whole 15-mer aptamer, many near background
Modification	mean fluorescence intensity [a.u.]
2'F-ANA at 1 2 4 6 7 9 11 12 13 14 15	66.2
2'F-ANA at 5 6 9 11 15	59.3
2'F-ANA at 1 2 3 4 5 7 8 10 11 14	43.6
2'F-ANA at 2 3 4 7 8 9 10	315
2'F-ANA at 3 4 6 10 12 15	290
2'F-ANA at 1 2 3 4 7 9 10 13 14 15	96.2
2'F-ANA at 5 8 9 11 13 14	48.4
2'F-ANA at 1 5 9 10 11 14 15	46.5
2'F-ANA at 1 3 4 5 6 10 11 13 14	53
2'F-ANA at 2 3 4 5 8 11 12 15	141
2'F-ANA at 3 6 11 14 15	535
2'F-ANA at 3 4 5 8 10 12 13 14 15	51.3
2'F-ANA at 4 6 7 8 12 14 15	135

Sample 4 — technique: RNA Bind-n-Seq; molecule type: RNA; matrix: in vitro; concentration: not given; relative to: input RNA pool; direction: higher = stronger binding
Target: RING finger protein unkempt homolog, zinc fingers 1-6, GST-SBP tag (UNK, Homo sapiens, UniProt Q9C0B0, residues 30-357)
Setting: RNA with constant flanks, human and mouse sites, ends assumed
Residues (chain): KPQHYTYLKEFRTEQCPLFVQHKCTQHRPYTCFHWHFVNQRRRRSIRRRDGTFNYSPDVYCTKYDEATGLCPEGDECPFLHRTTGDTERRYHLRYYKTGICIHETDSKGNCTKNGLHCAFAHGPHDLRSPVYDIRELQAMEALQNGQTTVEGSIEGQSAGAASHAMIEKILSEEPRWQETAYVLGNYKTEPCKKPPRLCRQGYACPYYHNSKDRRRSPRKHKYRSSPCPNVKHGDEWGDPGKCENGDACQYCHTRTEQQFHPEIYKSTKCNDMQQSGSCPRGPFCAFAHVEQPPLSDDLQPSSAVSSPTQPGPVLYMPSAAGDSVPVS
Oligonucleotide	bound/input enrichment
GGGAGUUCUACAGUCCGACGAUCAGCAUGGUUCGGCAUUCUUCAUCUCCAUAUGUAGUAUAUCCUUCGGAUAAGCCUUUCCUUAAUAGUGAUCUACGACGCUCCCCAAGUAAGCCUACACUUGCCUAUCCAGAAAGCAACAGCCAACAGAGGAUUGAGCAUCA	0.302 ratio
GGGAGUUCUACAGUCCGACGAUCAAACCAACUAAAAAUAUGAUUAACAUUAUUAGCCGCCUACAAGAGGUCUUUGGUCAUGCAAUUAAGGCUGCAUAUCCAGAUUUGGAAAAUCCUCCUCUGCUAGUGACACCAAGUCAGCAGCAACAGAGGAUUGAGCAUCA	0.618 ratio
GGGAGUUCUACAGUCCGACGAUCGCUACAGGGCUCCUGGUGCUGAAGGACCUGGGCAUCCAAGUGGACCGCUACAUUGCCUCCGAGGUGUGUGAGGACUCCAUCACGGUGGGCAUGGUGCGGCACCAGGGAAAGAUCAUGUACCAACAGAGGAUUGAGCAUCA	0.0804 ratio
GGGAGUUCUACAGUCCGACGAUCGUAAGAUUCAUCUCCCGGUUAUGCCCUCCUGGAAAGCCCUUCCCAACAUAUUAUGUUGUCCAUAGAGGGAAAAAUGAGCAAAGACAGAUGGCUUAACUCUGGUGUGUGACUAAGAUAUAGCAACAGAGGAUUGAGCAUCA	0.494 ratio
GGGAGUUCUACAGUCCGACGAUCCACUGUUUAAUCUCUUCAGUGAAAUAAAUAGUCCUGGUGACAGGCAAUCUAUUGGUUUAGAGGAAAGGUCCUUAAGAAGUGUUGGAAACUAACUUUGGAUCUGUUCUUAGCUGUUGUUUUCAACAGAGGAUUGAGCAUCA	0.306 ratio

Sample 5 — technique: protein binding microarray; molecule type: double-stranded DNA, one strand shown; matrix: in vitro; concentration: not given; relative to: not given; direction: higher = stronger binding
Target: Histone acetyltransferase KAT6A, winged helix 1, GST fusion (KAT6A, Homo sapiens, UniProt Q92794, residues 1-85)
Setting: 8-mer, flanks averaged, mean of 2 arrays, mostly near background
Residues (chain): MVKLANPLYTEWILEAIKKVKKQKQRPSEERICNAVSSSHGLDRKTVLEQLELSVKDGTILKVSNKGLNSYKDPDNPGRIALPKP
Oligonucleotide	E-score
CTATCCCA	-0.136
CAAATCTG	-0.167
ACAGGAAA	-0.00924
GGAGTACA	0.0241
ATTATGAG	-0.138
TCCGCTAA	0.2
AAGCTGTC	-0.218
AACGTACG	0.188
GTTTACAA	-0.216
AGGATCAT	-0.226
ACCAACGA	-0.23
ATCTTTTA	-0.131
ACCACAAG	-0.178

Sample 6 — technique: RNA Bind-n-Seq; molecule type: RNA; matrix: in vitro; concentration: 365 nM; relative to: no-protein control; direction: higher = stronger binding
Target: RNA binding protein fox-1 homolog 2, RRM domain, GST-SBP tag (RBFOX2, Homo sapiens, UniProt O43251-10, residues 100-194)
Setting: natural RNA segment, single round, ends assumed
Residues (chain): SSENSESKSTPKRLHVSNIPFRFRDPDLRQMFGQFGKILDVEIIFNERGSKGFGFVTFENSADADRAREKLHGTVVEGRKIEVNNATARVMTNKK
Oligonucleotide	RBNS enrichment (R)
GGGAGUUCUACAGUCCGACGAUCCUUGAGCCAUGUGGUCUCUUUACAAUCAAGAGACUGUACAUAUGUGAAAAAAUACAAAUUAAGGACCUGUGUUCAUAGACAAUCUAAACUGUGUUUCUGAAGUUUGUGCAUGGAAUUCUCGGGUGCCAA	0.928
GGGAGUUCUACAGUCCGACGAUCUCCAUGUUUAUACCAAAUUGCACAAAGUAUAGACAUUGAGGUUAAUGGAGAUUUAAGCACAAUCCUAGCAAGUAAGUUUUAAGAAUACUGAAUAUUAUACAUUAUUGUAAUGGAAUUCUCGGGUGCCAA	2.41
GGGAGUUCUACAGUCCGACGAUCAGUCUUCACUCCAUCCCCAGGUGCUUGUUCACCUCAUUAAUGAGCACCUAGAGCAAGGACCAAAAGAAGGAAAACUAAUUAAAACCAAUGCAUAUUCAUGCCAAAACAAGUGGAAUUCUCGGGUGCCAA	0.238
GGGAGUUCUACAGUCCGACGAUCAGUAUGAUGAGCAAAAGGCCAGAACUCCAGUGUCCUGUGAGAUUGGCUGACCCGAGCGAGGUAUUAUCUCGGUCUUCAGCCGCUGGAGUUUCAGGGCUGGGCAGCAGGUUUGGAAUUCUCGGGUGCCAA	0.693
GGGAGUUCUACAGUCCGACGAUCGUGUUGUUGUUGCCUUACAGAGGACUACAAGUAUAAAGCAAAUAGCUGUUUUAAAAUUAUGUAAAUAAGUCACAGGCUAGUUAUUUGAAAACUCUAAGUCACUUUAAUUUUGGAAUUCUCGGGUGCCAA	0.348
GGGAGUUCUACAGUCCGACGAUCAGAGACGGAAGGAGCACCUUGACAGACUUGUGUGAGUCUUCUCGAAGGAGGGUUGACUCAGAACCCAGAGACAAUACAAAACCCCUCACUUCCUCUGAGAGGGCCAAAUGUGGAAUUCUCGGGUGCCAA	0.271
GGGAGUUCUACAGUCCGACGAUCUAAUGGGCCUGAAAAAGUUUCUUCUUUGAUUAUGUAGUUACUCUAGAUACAUUCUUUUAGGGAAGUGUAUGGUCAACAUAUAUUUACUCAGUAUACAGAUAACCACAAAGUGGAAUUCUCGGGUGCCAA	0.322
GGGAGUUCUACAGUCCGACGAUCUCCCCAUUUACAUUUUCCCCACUCUGUCUGCCUGCAUCUCCUCUGUUCCGGGUAGGCCUUGAUAUCACCUCUGGGACUGUGCCUUGCUCACCGAAACCCGCGCCCAGGAGUGGAAUUCUCGGGUGCCAA	2.81

Single results of other studies
Starting sequence: AKAP12 docking peptide (human); GSPLKKLFTSTGL; partner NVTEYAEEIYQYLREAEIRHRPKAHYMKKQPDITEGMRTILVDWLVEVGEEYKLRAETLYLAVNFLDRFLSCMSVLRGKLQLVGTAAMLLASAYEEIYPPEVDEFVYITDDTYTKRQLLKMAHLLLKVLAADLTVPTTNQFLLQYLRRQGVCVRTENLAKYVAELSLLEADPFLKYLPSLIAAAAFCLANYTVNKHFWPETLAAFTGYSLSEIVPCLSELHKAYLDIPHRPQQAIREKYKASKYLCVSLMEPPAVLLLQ
Variant	target	assay	system	conditions	scale	quantity	result
GSPLKKLATSTGL [F8A]	CCNA1, cyclin fold, Cln2 fusion (human)	yeast growth competition, sequencing	yeast	weak parent motif	relative to: not given, higher = stronger binding	normalised enrichment score	0.195
